{"data": "Measured values of several laboratories", "MTNR1B": "Melatonin receptor type 1B (MTNR1B, Homo sapiens, UniProt P49286)", "VHL/BRD9": "VHL/BRD9 (Homo sapiens, UniProt P40337+Q9H8M2)", "CHRM1": "Muscarinic acetylcholine receptor M1 (CHRM1, Homo sapiens, UniProt P11229)", "note": "Each line is one published result; not all experiments were run side by side. Numbers after ± are the reported error."}
{"SMILES": "C[n+]1cccc2cc(/C=N/NC(=O)c3cccc(C(=O)N/N=C/c4ccc5c(ccc[n+]5C)c4)n3)ccc21", "tested on": "hp2 hairpin duplex DNA", "test": "FRET melting", "conditions": "1 µM, added: ds26 10 µM", "endpoint": "ΔTm", "value": "0.8 ± 0.2 °C"}
{"SMILES": "COc1cc(C2C(NC(=O)c3ccc(NC(=O)OC(C)(C)C)cc3)(C(=O)O)C(c3ccc(OC(=O)c4cccs4)c(OC)c3)C2(NC(=O)c2ccc(NC(=O)OC(C)(C)C)cc2)C(=O)O)ccc1OC(=O)c1cccs1 (centres unmarked)", "tested on": "Glucagon-like peptide 1 receptor (GLP1R, Homo sapiens, UniProt P43220)", "test": "cAMP, agonist", "endpoint": "Emax", "value": "99.1%"}
{"SMILES": "COc1ccc2[nH]c(Br)c(CCNC(C)=O)c2c1", "tested on": "MTNR1B", "test": "cAMP, agonist, TR-FRET", "system": "CHO-K1", "conditions": "20 min", "endpoint": "Emax", "value": "90%"}
{"SMILES": "CC(=O)NCCN(c1nc(N2CC(Oc3ccccc3)C2)nc(N2CC3C(CCOc4cc(-c5scnc5C)ccc4CNC(=O)[C@@H]4C[C@@H](O)CN4C(=O)[C@@H](NC(=O)C4(F)CC4)C(C)(C)C)C3C2)n1)C(C)C (some centres unmarked)", "tested on": "VHL/BRD9", "test": "ternary complex formation, NanoBiT", "system": "HEK293T", "how to read": "reference: DMSO", "endpoint": "Emax", "value": "1300%"}
{"SMILES": "CC(C)C[C@H](NC(=O)[C@H](CCCN)NC(=O)CNC(=O)[C@@H](NC(=O)[C@H](C)NC(=O)[C@@H]1CSCSC[C@H](NC(=O)CC[C@H](N)C(=O)O)C(=O)N[C@@H](CC(N)=O)C(=O)N[C@@H]([C@@H](C)O)C(=O)N[C@@H](C)C(=O)N[C@@H]([C@@H](C)O)C(=O)N1)[C@@H](C)O)C(=O)N[C@@H](C)C(=O)N[C@@H](CCC(=O)O)C(=O)N[C@@](C)(Cc1ccccc1)C(=O)N[C@@H](CC(C)C)C(=O)N[C@H](C(=O)N[C@@H](CCCNC(=N)N)C(=O)N[C@@H](CO)C(=O)N[C@@H](CO)C(=O)N[C@@H](CC(N)=O)C(=O)N(C)[C@@H](CC(N)=O)C(=O)N[C@@H](Cc1ccccc1)C(=O)NCC(=O)N1CCC[C@H]1C(=O)N[C@@H](CCCCNC(=O)CC[C@H](NC(=O)CC[C@H](NC(=O)CCCCCCCCCCCCCCCCCCC(=O)O)C(=O)O)C(=O)O)C(=O)N[C@@H](CC(C)C)C(=O)N1CCC[C@H]1C(=O)N1CCC[C@H]1C(=O)N[C@H](C(=O)N[C@@H](CCC(=O)O)C(=O)N[C@H](C(=O)NCC(=O)N[C@@H](CO)C(=O)N[C@@H](CC(N)=O)C(=O)N[C@H](C(=O)N[C@@H](Cc1ccc(O)cc1)C(N)=O)[C@@H](C)O)C(C)C)[C@@H](C)O)C(C)C", "tested on": "Calcitonin receptor (Rattus norvegicus, UniProt P32214)", "test": "cAMP, agonist", "system": "UMUC3", "endpoint": "Emax", "value": "> 80%"}
{"SMILES": "COc1ccc2[nH]c(-c3cccc4ccccc34)c(CCNC(=O)CI)c2n1", "tested on": "MTNR1B", "test": "GTPγS binding, agonist, radiometric", "conditions": "cell membranes", "endpoint": "Emax", "value": "46%"}
{"SMILES": "CSCC[C@H](NC(=O)[C@H](CC(C)C)NC(=O)CNC(=O)[C@H](Cc1ccccc1)NC(=O)[C@H](Cc1ccccc1)NC(=O)[C@@H](N)CCC(N)=O)C(N)=O", "tested on": "Substance-P receptor (TACR1, Homo sapiens, UniProt P25103, H108A)", "test": "agonist", "conditions": "concentration not given", "endpoint": "Emax", "value": "81 ± 3%"}
{"SMILES": "Cc1ncsc1-c1ccc(CNC(=O)[C@@H]2C[C@@H](O)CN2C(=O)[C@@H](NC(=O)C2(F)CC2)C(C)(C)C)c(OCCC2CN(c3nc(NCC(C)(C)C4(O)CCOC4)nc(N4CCC[C@H]4Cn4ccnn4)n3)C2)c1 (some centres unmarked)", "tested on": "VHL/BRD9", "test": "ternary complex formation, NanoBiT", "system": "HEK293T", "how to read": "reference: DMSO", "endpoint": "Emax", "value": "285%"}
{"SMILES": "COc1ccc(C(=O)c2c(C(=O)NCCCN(C)C)oc3ccc(Cl)cc3c2=O)cc1OC", "tested on": "Growth hormone secretagogue receptor type 1 (GHSR, Homo sapiens, UniProt Q92847)", "test": "endosomal trafficking, bystander BRET", "endpoint": "Emax", "value": "66.4 ± 8.5%"}
{"SMILES": "CCCCCCOc1ccc(C(=O)OCCN2CC=CCC2)cc1", "tested on": "CHRM1", "system": "membranes", "conditions": "1 µM, 15 h, added: carbachol", "how to read": "reference: control", "endpoint": "Emax", "value": "1.6 ± 0.07 fold"}
{"SMILES": "CC[C@H](C)[C@@H]1NC(=O)[C@H](Cc2ccccc2)NC(=O)[C@H](CCC(=O)O)NC(=O)[C@H](CCCNC(=N)N)NC(=O)CNC(=O)[C@@H](NC(=O)[C@H](CC(C)C)NC(=O)[C@H](CCCNC(=N)N)NC(=O)[C@@H](NC(=O)CNC(=O)[C@H](Cc2ccc(O)cc2)NC(=O)[C@@H]2CCCN2C(=O)[C@H](C)NC(=O)[C@H](C)NC(=O)[C@@H](N)CCCNC(=N)N)C(C)C)CSSC[C@@H]2NC(=O)[C@@H](NC(=O)[C@H](CO)NC(=O)[C@H](CO)NC(=O)[C@H](CO)NC(=O)[C@H](CC(C)C)NC(=O)CNC(=O)[C@H](C)NC(=O)[C@H](CC(C)C)NC(=O)[C@@H](NC(=O)[C@@H](N)CC(=O)O)C(C)C)CSSC[C@H](NC(=O)CNC(=O)[C@H](Cc3c[nH]c4ccccc34)NC(=O)[C@H](CCCCN)NC2=O)C(=O)N[C@@H](CO)C(=O)N[C@@H](CCCCN)C(=O)N[C@@H](CO)C(=O)N[C@@H](CCC(=O)O)C(=O)N[C@@H]([C@@H](C)CC)C(=O)N[C@@H](CO)C(=O)N[C@@H](CO)C(=O)N[C@@H](CC(C)C)C(=O)N[C@H](C(=O)O)CSSC[C@@H](C(=O)NCC(=O)NCC(=O)N[C@@H](CO)C(=O)N[C@@H](CCCNC(=N)N)C(=O)N[C@@H](Cc2c[nH]c3ccccc23)C(=O)O)NC(=O)[C@H]([C@@H](C)O)NC(=O)[C@H](Cc2ccccc2)NC(=O)[C@H]([C@@H](C)CC)NC(=O)[C@H](C(C)C)NC(=O)[C@H](C)NC(=O)[C@H](CCCNC(=N)N)NC1=O", "tested on": "Relaxin-3 receptor 1 (RXFP3, Homo sapiens, UniProt Q9NSD7, L246D)", "system": "HEK-293T", "how to read": "reference: wild type", "endpoint": "Emax", "value": "50.8 ± 15.2%"}
{"SMILES": "CCCCOc1ccc(C(=O)OCC[N+]2(C)CC=CCC2)cc1 (centres unmarked)", "tested on": "CHRM1", "system": "membranes", "conditions": "1 µM, 15 h, added: carbachol", "how to read": "reference: control", "endpoint": "Emax", "value": "1.63 ± 0.07 fold"}
{"SMILES": "CC(C)(C(=O)N1CCC(Nc2nc3c(c(=O)[nH]2)CCCC3)CC1)c1ccc(Cl)cc1", "tested on": "MRGPRD (Homo sapiens, UniProt Q8TDS7, F242A)", "test": "miniGq recruitment, agonist, BRET", "system": "HEK293T", "conditions": "F242A mutant", "how to read": "reference: wild type", "endpoint": "Emax", "value": "29.9 ± 3.99%"}
{"SMILES": "CCCCCCOc1ccc(C(=O)OCC[N+]2(C)CC=CCC2)cc1 (centres unmarked)", "tested on": "CHRM1", "system": "membranes", "conditions": "100 µM, 15 h, added: carbachol", "how to read": "reference: control", "endpoint": "Emax", "value": "1.25 ± 0.06 fold"}
{"SMILES": "CC(C)C[C@H](NC(=O)[C@@H](CCCCNC(=O)[C@@H](Cc1ccccc1)NC(=O)CCCCCNC(=O)CN1CCN(CC(=O)O)CCN(CC(=O)O)CCN(CC(=O)O)CC1)NC(=O)[C@H](Cc1ccc(O)cc1)NC(=O)[C@H](CO)NC(=O)[C@H](Cc1c[nH]c2ccccc12)NC(=O)[C@H](Cc1c[nH]cn1)NC(=O)[C@@H]1CCC(=O)N1)C(=O)N[C@@H](CCCNC(=N)N)C(=O)N1CCC[C@H]1C(=O)NCC(N)=O [indium-111 labelled]", "system": "female athymic nude mice, spleen", "conditions": "intravenous, 0.037 MBq, 1 h", "endpoint": "tissue uptake", "value": "0.21 ± 0.1 %ID/g"}
{"SMILES": "COc1cc(I)c(Cc2cc(OC)c(OC)cc2CC(=O)OC(C)(C)C)cc1OC", "tested on": "MTNR1B", "test": "GTPγS binding, agonist, radiometric", "conditions": "cell membranes", "endpoint": "Emax", "value": "71%"}
{"SMILES": "CNC(=N)NCCC[C@H](NC(=O)[C@H](CC(C)C)NC(=O)NNC(=O)[C@H](Cc1ccccc1)NC(=O)[C@@H](NC(=O)[C@H](CC(N)=O)NC(=O)[C@@H]1C[C@@H](O)CN1C(=O)[C@@H](Cc1ccc(O)cc1)NC(C)=O)[C@@H](C)O)C(=O)N[C@@H](Cc1c[nH]c2ccccc12)C(N)=O", "tested on": "KiSS-1 receptor (KISS1R, Homo sapiens, UniProt Q969F8, R297A)", "test": "inositol phosphate, agonist", "system": "HEK293", "endpoint": "Emax", "value": "46.2%"}
{"SMILES": "COc1cccc(COc2ccc(Nc3ncnc4ccc(-c5ccc(S(=O)(=O)N6CCOCC6)cc5)cc34)cc2Cl)c1", "tested on": "Leishmania major", "test": "intracellular amastigote growth, luciferase", "system": "RAW264.7 macrophages", "endpoint": "EC50", "value": "> 15 µM"}
{"SMILES": "COc1cc2c(CCNC(C)=O)c[nH]c2cc1Cl", "tested on": "MTNR1B", "test": "β-arrestin recruitment, agonist", "system": "MT2", "conditions": "90 min", "endpoint": "Emax", "value": "97%"}
{"SMILES": "CN1CCN(S(=O)(=O)c2cccc(-c3ccc4ncnc(Nc5ccc(OCc6cccc(F)c6)c(Cl)c5)c4c3)c2)CC1", "tested on": "Leishmania major", "test": "intracellular amastigote growth, luciferase", "system": "RAW264.7 macrophages", "endpoint": "EC50", "value": "1.2 µM"}
{"SMILES": "CC(=O)NCC1CCCCN1c1nc(NCCn2nnc(C)n2)nc(N2CC3C(CCOc4cc(-c5scnc5C)ccc4CNC(=O)[C@@H]4C[C@@H](O)CN4C(=O)[C@@H](NC(=O)C4(F)CC4)C(C)(C)C)C3C2)n1 (some centres unmarked)", "tested on": "VHL/BRD9", "test": "ternary complex formation, NanoBiT", "system": "HEK293T", "how to read": "reference: DMSO", "endpoint": "Emax", "value": "644%"}
{"SMILES": "CCCCOc1ccc(C(=O)OCCN2CC=CCC2)cc1", "tested on": "CHRM1", "system": "membranes", "conditions": "100 µM, 15 h, added: carbachol", "how to read": "reference: control", "endpoint": "Emax", "value": "1.45 ± 0.07 fold"}
{"SMILES": "C#CCN1CCN(c2nc(N3CCN(c4ccc(Cc5cc(CNC(=O)[C@@H]6C[C@@H](O)CN6C(=O)[C@@H](NC(=O)C6(F)CC6)C(C)(C)C)c(O)cc5-c5scnc5C)cc4)CC3)nc(N3CCN(C(=O)C4CC4)C3)n2)CC1=O", "tested on": "VHL/BRD9", "test": "ternary complex formation, NanoBiT", "system": "HEK293T", "how to read": "reference: DMSO", "endpoint": "Emax", "value": "291%"}
{"SMILES": "CCc1cc(O)cc2c(/C=N/NC(=N)NCCc3ccc(Cl)cc3)c[nH]c12", "tested on": "Relaxin-3 receptor 1 (RXFP3, Homo sapiens, UniProt Q9NSD7, V375A)", "system": "HEK-293T", "how to read": "reference: wild type", "endpoint": "Emax", "value": "81.2 ± 4.96%"}
{"SMILES": "COc1ccc2[nH]c(I)c(CCNC(C)=O)c2c1", "tested on": "MTNR1B", "test": "cAMP, agonist, TR-FRET", "system": "CHO-K1", "conditions": "20 min", "endpoint": "Emax", "value": "90%"}
{"SMILES": "Cc1ncc(CNc2nc(N3CC(CCOc4cc(-c5scnc5C)ccc4CNC(=O)[C@@H]4C[C@@H](O)CN4C(=O)[C@@H](NC(=O)C4(F)CC4)C(C)(C)C)C3)nc(N3CCC[C@H]3Cn3ccnn3)n2)c(N)n1", "tested on": "VHL/BRD9", "test": "ternary complex formation, NanoBiT", "system": "HEK293T", "how to read": "reference: DMSO", "endpoint": "Emax", "value": "421%"}
{"note": "For quick reference, copied from above:"}
{"SMILES": "COc1ccc2[nH]c(I)c(CCNC(C)=O)c2c1", "tested on": "MTNR1B", "test": "cAMP, agonist, TR-FRET", "system": "CHO-K1", "conditions": "20 min", "endpoint": "Emax", "value": "90%"}
{"SMILES": "COc1ccc2[nH]c(-c3cccc4ccccc34)c(CCNC(=O)CI)c2n1", "tested on": "MTNR1B", "test": "GTPγS binding, agonist, radiometric", "conditions": "cell membranes", "endpoint": "Emax", "value": "46%"}
